Measurements from different studies.
Numbered parts are unrelated; each lists some results of a single study.
Sequence of UniProt Q9H093 (whole entry, looked up): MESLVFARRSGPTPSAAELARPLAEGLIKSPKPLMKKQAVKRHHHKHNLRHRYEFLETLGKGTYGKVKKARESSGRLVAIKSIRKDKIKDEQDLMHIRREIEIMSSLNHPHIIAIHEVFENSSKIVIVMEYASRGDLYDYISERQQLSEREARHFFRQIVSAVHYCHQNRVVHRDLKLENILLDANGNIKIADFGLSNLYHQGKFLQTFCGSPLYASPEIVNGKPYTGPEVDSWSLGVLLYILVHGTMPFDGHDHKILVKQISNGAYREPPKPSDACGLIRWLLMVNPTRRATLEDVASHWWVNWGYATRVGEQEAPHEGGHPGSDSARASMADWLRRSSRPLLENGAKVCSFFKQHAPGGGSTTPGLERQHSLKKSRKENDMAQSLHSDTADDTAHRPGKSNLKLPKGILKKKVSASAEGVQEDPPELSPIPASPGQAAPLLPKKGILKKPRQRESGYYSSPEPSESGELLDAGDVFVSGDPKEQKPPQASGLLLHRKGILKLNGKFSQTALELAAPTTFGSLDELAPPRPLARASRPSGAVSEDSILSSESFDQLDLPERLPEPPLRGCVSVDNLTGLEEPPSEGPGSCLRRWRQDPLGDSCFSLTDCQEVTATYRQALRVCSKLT
Sequence of UniProt Q02779 (whole entry, looked up): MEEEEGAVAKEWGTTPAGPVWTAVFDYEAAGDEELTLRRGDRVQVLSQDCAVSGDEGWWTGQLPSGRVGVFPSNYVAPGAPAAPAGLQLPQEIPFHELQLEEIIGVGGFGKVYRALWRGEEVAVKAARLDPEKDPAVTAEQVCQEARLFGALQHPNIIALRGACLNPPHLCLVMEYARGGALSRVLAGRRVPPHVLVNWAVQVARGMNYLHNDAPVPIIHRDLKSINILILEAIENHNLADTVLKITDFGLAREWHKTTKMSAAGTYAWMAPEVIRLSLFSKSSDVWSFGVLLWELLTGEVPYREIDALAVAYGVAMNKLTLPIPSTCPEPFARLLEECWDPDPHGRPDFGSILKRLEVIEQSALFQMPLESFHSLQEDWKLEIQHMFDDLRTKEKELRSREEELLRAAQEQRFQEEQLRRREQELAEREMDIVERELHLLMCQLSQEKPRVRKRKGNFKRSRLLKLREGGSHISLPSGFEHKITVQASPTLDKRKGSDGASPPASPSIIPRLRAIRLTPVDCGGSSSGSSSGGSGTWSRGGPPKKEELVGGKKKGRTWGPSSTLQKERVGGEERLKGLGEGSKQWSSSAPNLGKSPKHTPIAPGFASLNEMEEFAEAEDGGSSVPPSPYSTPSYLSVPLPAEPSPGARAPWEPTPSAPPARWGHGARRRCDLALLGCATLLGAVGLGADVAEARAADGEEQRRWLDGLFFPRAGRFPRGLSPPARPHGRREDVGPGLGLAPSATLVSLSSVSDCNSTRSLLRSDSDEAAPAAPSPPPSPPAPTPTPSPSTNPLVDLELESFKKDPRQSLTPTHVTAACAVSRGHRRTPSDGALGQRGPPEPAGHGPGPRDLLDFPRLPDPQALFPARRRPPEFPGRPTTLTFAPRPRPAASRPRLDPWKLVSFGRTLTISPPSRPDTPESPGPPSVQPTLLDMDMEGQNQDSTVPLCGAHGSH
Sequence of UniProt P49336 (whole entry, looked up): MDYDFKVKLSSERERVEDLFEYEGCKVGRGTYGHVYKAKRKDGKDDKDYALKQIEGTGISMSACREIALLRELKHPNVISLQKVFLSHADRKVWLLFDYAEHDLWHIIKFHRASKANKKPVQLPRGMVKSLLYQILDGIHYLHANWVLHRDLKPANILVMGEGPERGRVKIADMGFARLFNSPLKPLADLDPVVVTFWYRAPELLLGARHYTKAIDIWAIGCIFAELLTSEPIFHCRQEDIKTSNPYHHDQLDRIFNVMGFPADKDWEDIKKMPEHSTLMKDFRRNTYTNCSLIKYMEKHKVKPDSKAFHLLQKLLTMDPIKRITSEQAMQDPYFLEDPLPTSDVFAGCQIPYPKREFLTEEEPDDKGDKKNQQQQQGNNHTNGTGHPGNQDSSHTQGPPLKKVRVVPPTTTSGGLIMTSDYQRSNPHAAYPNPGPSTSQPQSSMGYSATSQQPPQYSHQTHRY
Sequence of UniProt P29597 (whole entry, looked up): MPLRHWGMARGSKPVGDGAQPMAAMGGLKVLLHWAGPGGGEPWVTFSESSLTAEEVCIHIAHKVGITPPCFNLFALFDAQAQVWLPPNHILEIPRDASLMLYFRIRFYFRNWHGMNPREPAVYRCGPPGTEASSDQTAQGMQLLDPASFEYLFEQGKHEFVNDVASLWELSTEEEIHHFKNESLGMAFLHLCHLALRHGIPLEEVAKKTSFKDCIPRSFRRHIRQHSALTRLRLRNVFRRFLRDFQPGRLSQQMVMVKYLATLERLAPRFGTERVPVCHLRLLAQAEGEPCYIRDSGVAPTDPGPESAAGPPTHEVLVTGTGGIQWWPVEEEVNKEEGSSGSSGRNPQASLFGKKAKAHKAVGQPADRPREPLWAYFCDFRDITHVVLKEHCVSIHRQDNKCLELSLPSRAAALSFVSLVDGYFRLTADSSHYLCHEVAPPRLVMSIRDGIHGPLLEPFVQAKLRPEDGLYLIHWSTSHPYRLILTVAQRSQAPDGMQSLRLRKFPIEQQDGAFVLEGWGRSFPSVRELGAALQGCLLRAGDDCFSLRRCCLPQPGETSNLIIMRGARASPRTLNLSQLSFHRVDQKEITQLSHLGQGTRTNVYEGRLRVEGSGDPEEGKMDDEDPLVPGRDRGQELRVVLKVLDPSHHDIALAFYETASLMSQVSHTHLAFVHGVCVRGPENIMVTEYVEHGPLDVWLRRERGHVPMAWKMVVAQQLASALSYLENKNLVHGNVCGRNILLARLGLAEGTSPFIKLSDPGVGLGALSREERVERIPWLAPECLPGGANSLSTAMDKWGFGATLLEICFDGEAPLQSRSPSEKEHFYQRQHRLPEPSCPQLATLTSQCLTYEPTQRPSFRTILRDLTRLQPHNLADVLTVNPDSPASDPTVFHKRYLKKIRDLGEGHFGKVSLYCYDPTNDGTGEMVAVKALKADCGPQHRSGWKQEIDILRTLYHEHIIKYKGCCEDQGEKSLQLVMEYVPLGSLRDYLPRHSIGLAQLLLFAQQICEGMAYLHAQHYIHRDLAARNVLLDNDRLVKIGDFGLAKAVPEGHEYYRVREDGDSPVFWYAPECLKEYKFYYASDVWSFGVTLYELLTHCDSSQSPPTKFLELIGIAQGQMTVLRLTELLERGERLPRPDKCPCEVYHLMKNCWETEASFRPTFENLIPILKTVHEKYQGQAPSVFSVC

Block 1 — read-out: enzyme activity; mode: inhibitor; tested at: 0.5 µM; relative to: control
Target: Muscle, skeletal receptor tyrosine-protein kinase (MUSK, Homo sapiens, UniProt O15146)
Sequence of UniProt O15146 (whole entry, looked up): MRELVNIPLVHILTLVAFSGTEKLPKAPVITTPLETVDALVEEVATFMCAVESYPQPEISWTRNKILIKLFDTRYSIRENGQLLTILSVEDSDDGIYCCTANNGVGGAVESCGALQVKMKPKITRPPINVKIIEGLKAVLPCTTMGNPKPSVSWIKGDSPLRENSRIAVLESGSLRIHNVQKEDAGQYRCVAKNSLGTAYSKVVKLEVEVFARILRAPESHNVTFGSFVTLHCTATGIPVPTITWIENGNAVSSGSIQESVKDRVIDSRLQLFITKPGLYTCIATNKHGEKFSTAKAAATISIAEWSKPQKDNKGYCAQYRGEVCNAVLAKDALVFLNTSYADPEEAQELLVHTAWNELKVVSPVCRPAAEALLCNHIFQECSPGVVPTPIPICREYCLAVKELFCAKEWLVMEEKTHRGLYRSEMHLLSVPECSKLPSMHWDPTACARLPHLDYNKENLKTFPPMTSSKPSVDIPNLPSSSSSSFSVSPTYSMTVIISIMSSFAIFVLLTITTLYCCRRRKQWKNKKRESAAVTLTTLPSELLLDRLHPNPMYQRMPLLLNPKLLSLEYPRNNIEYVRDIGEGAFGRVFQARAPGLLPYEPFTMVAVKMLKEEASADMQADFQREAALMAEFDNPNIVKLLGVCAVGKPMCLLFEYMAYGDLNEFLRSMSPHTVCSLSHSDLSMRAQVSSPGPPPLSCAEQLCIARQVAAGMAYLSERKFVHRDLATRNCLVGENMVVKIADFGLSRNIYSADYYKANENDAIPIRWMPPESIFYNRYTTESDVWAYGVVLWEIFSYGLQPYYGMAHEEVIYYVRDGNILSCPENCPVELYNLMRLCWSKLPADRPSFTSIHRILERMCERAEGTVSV
The remaining activity of O=C1Cc2c([nH]c3ccc([N+](=O)[O-])cc23)-c2ccccc2N1 is reported as 68.5%.
NC(=O)c1ccc(N(C(N)=O)c2c(F)cccc2F)nc1-c1ccc(F)cc1F gave a remaining activity of 102%.
For COc1cc(Nc2c(C#N)cnc3cc(OCCCN4CCN(C)CC4)c(OC)cc23)c(Cl)cc1Cl, the remaining activity was 81.7%.
For CCc1[nH]c(-c2ccc(OC)cc2)nc1-c1ccncc1, the remaining activity was 85.9%.
CC[n+]1c(/C=C/N(C)c2ccccc2)n(-c2ccccc2)c2ccc(-c3nc4ccccc4s3)cc21 has a remaining activity of 94.7%.
With Cc1cc(Nc2nc(-c3ccccc3)nc3ccccc23)n[nH]1 the remaining activity was 51%.
The remaining activity of Fc1ccc(-c2nc3n(c2-c2ccncc2)CCS3)cc1 is reported as 91.1%.
N#CC(=C(N)Sc1ccc(N)cc1)c1ccccc1C(F)(F)F has a remaining activity of 91.9%.
Nc1ncnc2c1cnn2-c1ccccc1 has a remaining activity of 88%.
Oc1ccc(Nc2nc(-c3ccc(Cl)cc3)cs2)cc1 has a remaining activity of 99.5%.
The remaining activity of Nc1nccc(-c2c(-c3ccc(F)cc3)ncn2C2CCNCC2)n1 is reported as 86.9%.
For CC#CC(=O)Nc1cc2c(Nc3ccc(F)c(Cl)c3)ncnc2cn1, the remaining activity was 79.6%.
The remaining activity of Nc1nc(Nc2ccc(S(N)(=O)=O)cc2)nn1C(=O)c1c(F)cccc1F is reported as 83.1%.
O=S(=O)(NCCNC/C=C/c1ccc(Br)cc1)c1cccc2cnccc12 has a remaining activity of 80.7%.
For O=C1NC(=O)C(c2c[nH]c3ccccc23)=C1c1c[nH]c2ccccc12, the remaining activity was 76.4%.
For Cc1ccc(NC2=CC(=O)c3sc(C)nc3C2=O)cc1, the remaining activity was 89.1%.
For CSc1nc(-c2ccnc(N[C@@H](C)c3ccccc3)c2)c(-c2ccc(F)cc2)[nH]1 (racemic), the remaining activity was 101%.
For COc1ccc(S(=O)(=O)N(CCO)c2ccccc2CN(C)CC=Cc2ccc(Cl)cc2)cc1, the remaining activity was 94.7%.
The remaining activity of CC(C)(C)n1nc(Cc2cccc3ccccc23)c2c(N)ncnc21 is reported as 87.6%.
With CC(=O)c1ccc(N2CCOCC2)cc1O the remaining activity was 93.9%.

Block 2 — read-out: cell-free assay; technique: competition with immobilised ligand; tested at: 1 µM
Compound: O=C(Nc1cnc(Oc2ccc(F)cc2)nc1)N1CCc2ncccc2[C@@H]1c1ccc(F)cc1
The remaining binding was 82% (PIM3 (Homo sapiens, UniProt Q86V86)).
It gave 85% for remaining binding (Ribosomal protein S6 kinase alpha-5, N-terminal kinase domain (RPS6KA5, Homo sapiens, UniProt O75582)).
For GRK4 (Homo sapiens, UniProt P32298): remaining binding read 67%.
MAST1 (Homo sapiens, UniProt Q9Y2H9) — remaining binding: 96%.
For EPHA6 (Homo sapiens, UniProt Q9UF33): remaining binding read 100%.
Tyrosine-protein kinase JAK2, JH1 (JAK2, Homo sapiens, UniProt O60674) — remaining binding: 84%.
The remaining binding was 76% (AXL (Homo sapiens, UniProt P30530)).
For TAOK2 (Homo sapiens, UniProt Q9UL54): remaining binding read 87%.
It gave 83% for remaining binding (Tyrosine-protein kinase ABL1, phosphorylated (ABL1, Homo sapiens, UniProt P00519, F317L)).
The remaining binding was 95% (ULK3 (Homo sapiens, UniProt Q6PHR2)).
ROS1 (Homo sapiens, UniProt P08922) — remaining binding: 82%.
MAPK9 (Homo sapiens, UniProt P45984) — remaining binding: 85%.
The remaining binding was 100% (NUAK2 (Homo sapiens, UniProt Q9H093)).
MAP3K2 (Homo sapiens, UniProt Q9Y2U5) — remaining binding: 99%.
It gave 70% for remaining binding (CDK8 (Homo sapiens, UniProt P49336)).
Tyrosine-protein kinase ABL1, phosphorylated (ABL1, Homo sapiens, UniProt P00519, T315I) — remaining binding: 77%.
MAP3K10 (Homo sapiens, UniProt Q02779) — remaining binding: 77%.
For MAP3K9 (Homo sapiens, UniProt P80192): remaining binding read 92%.
It gave 100% for remaining binding (Non-receptor tyrosine-protein kinase TYK2, JH2 (TYK2, Homo sapiens, UniProt P29597)).
The remaining binding was 89% (CDK3 (Homo sapiens, UniProt Q00526)).

Block 3 — mode: inhibitor
SMILES: Cc1nc(Nc2ncc(C(=O)Nc3c(C)cccc3Cl)s2)cc(N2CCN(CCO)CC2)n1
DCLK1: Serine/threonine-protein kinase DCLK1 (DCLK1, Homo sapiens, UniProt O15075)
Sequence of UniProt O15075 (whole entry, looked up): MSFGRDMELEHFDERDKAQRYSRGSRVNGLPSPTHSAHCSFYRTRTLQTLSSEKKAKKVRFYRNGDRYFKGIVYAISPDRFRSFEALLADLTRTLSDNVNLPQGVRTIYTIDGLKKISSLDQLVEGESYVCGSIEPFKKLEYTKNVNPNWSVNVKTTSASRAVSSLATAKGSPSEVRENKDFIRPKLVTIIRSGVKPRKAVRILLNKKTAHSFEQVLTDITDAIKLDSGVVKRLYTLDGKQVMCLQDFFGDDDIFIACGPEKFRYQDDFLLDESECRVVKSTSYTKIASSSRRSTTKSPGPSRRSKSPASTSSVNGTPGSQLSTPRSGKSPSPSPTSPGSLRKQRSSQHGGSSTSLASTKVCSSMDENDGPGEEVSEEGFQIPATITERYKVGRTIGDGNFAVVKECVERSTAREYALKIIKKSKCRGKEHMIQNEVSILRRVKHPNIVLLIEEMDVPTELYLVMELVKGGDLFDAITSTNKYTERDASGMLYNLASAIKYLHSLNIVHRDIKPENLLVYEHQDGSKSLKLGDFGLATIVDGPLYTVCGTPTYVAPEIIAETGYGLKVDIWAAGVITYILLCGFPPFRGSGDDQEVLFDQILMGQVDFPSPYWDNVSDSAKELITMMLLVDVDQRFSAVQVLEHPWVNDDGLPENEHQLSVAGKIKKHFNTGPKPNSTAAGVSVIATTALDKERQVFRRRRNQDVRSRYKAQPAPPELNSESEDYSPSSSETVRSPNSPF
The inhibition was < 50% (MYLK4 (Homo sapiens, UniProt Q86YV6); 10 µM).
RAF1 (Homo sapiens, UniProt P04049); 1 µM — inhibition: < 50%.
The inhibition was < 50% (NUAK2 (Homo sapiens, UniProt Q9H093); 10 µM).
CDK9 (Homo sapiens, UniProt P50750); 1 µM — inhibition: < 50%.
The inhibition was < 50% (CHUK (Homo sapiens, UniProt O15111); 1 µM).
DCLK1; 10 µM — inhibition: < 50%.
It gave 70% for inhibition (NEK2 (Homo sapiens, UniProt P51955); 10 µM).
The inhibition was < 50% (CDK19 (Homo sapiens, UniProt Q9BWU1); 1 µM).
It gave < 50% for inhibition (IRAK3 (Homo sapiens, UniProt Q9Y616); 10 µM).
For DCLK1; 1 µM: inhibition read < 50%.
DAPK1 (Homo sapiens, UniProt P53355); 10 µM — inhibition: < 50%.
MAP4K2 (Homo sapiens, UniProt Q12851); 10 µM — inhibition: 72%.

Block 4 — host: human; sample: microsomes or S9; tested at: 2 µM; time: 0.5 h
CC(C)n1c(=O)ccc2cnc(N[C@H]3CC[C@H](CN(C)C)CC3)nc21 gave a remaining compound of > 100%.
Nc1nc(N2CCc3ccccc3C2)nc2ccccc12 gave a remaining compound of 47%.
Cn1c(=O)c2cc(C(=O)O)c(=O)n(C)c2n(C)c1=O gave a remaining compound of 77.4%.
Cc1nc2c(cc1-c1ccccc1)[nH]c(=O)n2Cc1ccc(-c2cc(CC(C)C)sc2S(=O)(=O)NC(C)(C)C)cc1 gave a remaining compound of 9.17%.
COCCN1N=C(C)Cn2c1nc1c2c(=O)n(Cc2ccccc2Cl)c(=O)n1C gave a remaining compound of 82.8%.
Cc1[nH]c(=O)[nH]c(=O)c1S(=O)(=O)N1CCC(C(=O)NCCC(C)C)CC1 has a remaining compound of 78.2%.
For Oc1ccc(/C=C/c2c3c(cc4c2[C@H](c2cc(O)cc(O)c2)[C@@H](c2ccc(O)cc2)O4)O[C@H](c2ccc(O)cc2)[C@H]3c2cc(O)cc(O)c2)cc1, the remaining compound was 59.3%.
CC(=O)NCCOc1c(C)cc(S(N)(=O)=O)cc1C has a remaining compound of 71.4%.
CC(C)CCC(C(N)=O)C1=NC(C)(C)Cc2ccccc21 (stereo not drawn) has a remaining compound of 1.92%.
For CC1CC(C)CC(NC(=O)c2coc(CS(C)(=O)=O)n2)C1 (stereo not drawn), the remaining compound was 62.4%.
With CN(C(=O)CN1CCC(NC(=O)C2CCCCC2)CC1)C1CCCCC1 the remaining compound was 5.21%.

A few entries again (block 1):
The remaining activity of Nc1nccc(-c2c(-c3ccc(F)cc3)ncn2C2CCNCC2)n1 is reported as 86.9%.
For CC#CC(=O)Nc1cc2c(Nc3ccc(F)c(Cl)c3)ncnc2cn1, the remaining activity was 79.6%.
The remaining activity of Nc1nc(Nc2ccc(S(N)(=O)=O)cc2)nn1C(=O)c1c(F)cccc1F is reported as 83.1%.
O=S(=O)(NCCNC/C=C/c1ccc(Br)cc1)c1cccc2cnccc12 has a remaining activity of 80.7%.
